# Assay results gathered from unrelated publications.
# Numbered parts are unrelated; each lists some results of a single study. Changes are numbered by the printed parent chain.

# Block 1 — technique: RNA Bind-n-Seq; form: RNA; medium: in vitro; tested at: 365 nM; reference: no-protein control; reading: higher = stronger binding
# Target: RNA binding protein fox-1 homolog 2, RRM domain, GST-SBP tag (RBFOX2, Homo sapiens, UniProt O43251-10, residues 100-194)
# Setting: natural RNA segment, single round, ends assumed
# Constant ends, left off below: GGGAGUUCUACAGUCCGACGAUC … UGGAAUUCUCGGGUGCCAA
# Residues (chain): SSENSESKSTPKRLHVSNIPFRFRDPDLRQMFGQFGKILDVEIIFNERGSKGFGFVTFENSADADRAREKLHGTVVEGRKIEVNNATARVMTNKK
Strand,RBNS enrichment (R)
CAGGAAGCGUUCCAGCUAUUUAAUGCUGGCAACUACUGUUUAAUGGUCAGUUAAAUCUGUGAUAAUGGUUGGAAGUGGGUGGGGUUAUGAAAUUGUAGAUGUUUUUAGAA,1.17
UGCACAGCCCUGAGACCCCACUGGACUGCUGCUCCUUAGCUGGUCUAAAUAGAGCUUCUCUGUCCGAUUUGGCUCUUGUAUGGUCUGUCAUUGUUGGGCAAGAAGGGGAA,2.34
UGACUGAAAUUGCAUCAGUGAUCAUAAUGAGGUUUGUUAAAACGAUAGCUAUAUUCAAAAUGUCUAUAUGUUUAUUUGGACUUUUGAGGUUAAAGACAGUCAUAUAAACG,0.497
UGAGGGCAGCUGCUCUCCCAGCAUGUGCUGGCCACUCCAUCCCAAAAGCCCCCAUCAGAACUGCUGGUACUUGAAUCCUCAGAUACUUUAUAGGAGCCCUUGAAUGAAGC,1.97
AUAUAUUUUAAAUAUACUGUGUUUGCACACACUGGUAGCUAUGUGUUUGCACACAUUGGUAGACUGUUAUCAUUUGUGGUGGGAACCCAUGUAAAUAAGUAGACUGUAAA,0.772
AAGACUACUGGACUUGUAUCCAUGGUACUAUACUCAGUCCUCUUAUCUCAGCUUGCUGAGGGGCAGGGAGAGGGUCUCUUCCUCUGGGCAGCACUAUCUAGAUAGGUAAG,0.272
AAGAGUAACACCCACAUACAGAAUUUGUCACAUCCAGAGUAGCACUGUUCCUUAAUACUGGCAUAAUGCUUCCAGGAAGUUUUUCUUUUUUAUAUUUAAAAUGUUACUUU,0.474
UAUCCUAUAUGUAUUCCUUUCUAAACUGCUACUCAUGAAUGAGGAAAGUCUGAUGCUAAGAUACUGCCUGCACUGGAAUGUUAAACACUAAAUAUAUAACAAGCUGUGUU,1.44
ACAAAACAGCUACCAGCGGUACAGAGCGGUGAUCAAAGCCGAGUACUUACAACUCUGGUAAGCCUAGCUUCUCCGCCUCAGCCCUUCUGCUUCUGGAAGGGCUAUCCUGG,0.214
CCAGUUGUCCCGAUUGUAACUCAAAGGGUGGAAUAUCAAGGUCGUUUUUUUCAUUCCAUGUGCCCAGUUAAUCUUGCUUUCUUUGUUUGGCUGGGAUAGAGGGGUCAAGU,1.56
UUUCUUCCUUUUAGAAAAACUGUACAUUUGAUCUCUCAAUUCUGUUUGCAAAGCAGUGCAGAAAACUAUAAUCAAAUGUGACAUGUCUAUAAAAUAAUUUUGACAUAACA,0.4
UUAAAAACAGCAACCCUGCCUACCGUUUUGAUGACCUUUUUCCAUAUUAAACAAGUUGAGAACAAAAGAGUGUCACCGCUUGCUUCUUACCUCUGGUUCUGAAAUCAGAU,0.476

# Block 2 — target: CCNB1, cyclin fold, Cln2 fusion (human); technique: yeast growth competition, sequencing; medium: yeast; setting: strong parent motif; reference: not given; reading: higher = stronger binding
# Starting sequence: RBL2 docking peptide (human); STTRRRLFVENDS
Substitution,normalised enrichment score
FTTRRRLFVENDS [S1F],1.37
STTRRRLFYENDS [V9Y],1.12
NTTRRRLFVENDS [S1N],0.36
STTRRRLFVEKDS [N11K],1.25
SVTRRRLFVENDS [T2V],0.61
SATRRRLFVENDS [T2A],0.889
STTRRRLFVENDQ [S13Q],0.47
STTRRRLFVEADS [N11A],0.619
STRRRRLFVENDS [T3R],0.944
STTRRSLFVENDS [R6S],0.915
ITTRRRLFVENDS [S1I],0.448
SSTRRRLFVENDS [T2S],1.13
SFTRRRLFVENDS [T2F],-0.0894
STTRRRLFVENDD [S13D],2.06
STTRRRLFLENDS [V9L],0.748
STTRRRLFVENAS [D12A],-0.0842
SRTRRRLFVENDS [T2R],1.11
STTRRRVFVENDS [L7V],0.686
STTRRRLFVEDDS [N11D],2.06
STTRRRLFVVNDS [E10V],1.39
STTRRYLFVENDS [R6Y],0.131
STTRRRLFVEQDS [N11Q],1.35
STTRRRLFVENWS [D12W],0.983
STTRRRLFVENDI [S13I],1.17
STTRVRLFVENDS [R5V],0.735

# Block 3 — technique: aptamer microarray, sandwich; form: DNA with 2'F-ANA; medium: in vitro; tested at: 200 nM; together with: Cy3 exosite-II aptamer, 400 nM; reading: higher = stronger binding; strand: GGTTGGTGTGGTTGG
# Target: Prothrombin, mature alpha-thrombin (F2, Homo sapiens, UniProt P00734)
# Setting: whole 15-mer aptamer, many near background
Modification,mean fluorescence intensity
2'F-ANA at 3 7 9 10 11 14,368 a.u.
2'F-ANA at 1 3 5 6 8 12,147 a.u.
2'F-ANA at 2 3 4 8 9 11 13 14 15,224 a.u.
2'F-ANA at 4 6 7 12 15,563 a.u.
2'F-ANA at 3 11 12 13 14 15,581 a.u.
2'F-ANA at 1 2 4 6 7 11 13 14 15,57.5 a.u.
2'F-ANA at 1 7 13 14,54.6 a.u.
2'F-ANA at 1 2 3 5 9 11,69.7 a.u.
2'F-ANA at 3 4 8 9 10 11 12 13 14 15,185 a.u.
2'F-ANA at 1 2 3 7 8 9 10 12 13,77.5 a.u.
2'F-ANA at 3 4 5 6 10 12 13 15,53.1 a.u.
2'F-ANA at 4 5 6 8 9 11 12 13 15,72.9 a.u.
2'F-ANA at 1 3 6 9 10 12 13 14,84.6 a.u.
2'F-ANA at 1 2 3 4 6 9 10 12 15,74.6 a.u.
2'F-ANA at 1 2 4 8 13,109 a.u.
2'F-ANA at 1 2 3 4 5 7 11 12 14,47.2 a.u.
2'F-ANA at 4 7 9 11 13 14,80.3 a.u.
2'F-ANA at 1 8 9 11 12 13,274 a.u.
2'F-ANA at 2 4 5 7 8 15,75.3 a.u.
2'F-ANA at 3 7 9 11 15,992 a.u.
2'F-ANA at 2 4 5 6 11 12 13 14 15,54.9 a.u.
2'F-ANA at 1 2 3 7 9 10 11 12 14 15,82.4 a.u.
2'F-ANA at 3 5 7 9 10 14 15,62.7 a.u.
2'F-ANA at 2 5 8 10,43.4 a.u.
2'F-ANA at 1 3 6 7 8 9 11 14 15,83.8 a.u.

# Further values, each from its own experiment
Substance,target,assay,system,setting,how to read,measurement,value
"PhoQ, residues 284 288 289 292 302 303 SIHMAM","PhoP, residues 12 14 15 18 19 AWHSL (Escherichia coli, UniProt P23836)","Sort-seq, refers to: YFP reporter",E. coli,"PhoQ-PhoP variant library, together with: 10 µM Mg2+","reference: high Mg2+ state, higher = stronger signaling",fold induction,1.93

# Repeated from above (block 2):
Substitution,normalised enrichment score
SVTRRRLFVENDS [T2V],0.61
STTRRYLFVENDS [R6Y],0.131
STRRRRLFVENDS [T3R],0.944
STTRRSLFVENDS [R6S],0.915
STTRRRLFVEQDS [N11Q],1.35
STTRRRVFVENDS [L7V],0.686
ITTRRRLFVENDS [S1I],0.448
